Published values gathered from unrelated publications.
A part holds a random share of what one study measured.

Set 1
Target: Histone acetyltransferase KAT6A, winged helix 1, GST fusion (KAT6A, Homo sapiens, UniProt Q92794, residues 1-85)
Technique: protein binding microarray
Form: double-stranded DNA, one strand shown
Matrix: in vitro
Tested at: not given
Setting: 8-mer, flanks averaged, mean of 2 arrays, mostly near background
Reference: not given
Reading: higher = stronger binding
Target sequence (chain): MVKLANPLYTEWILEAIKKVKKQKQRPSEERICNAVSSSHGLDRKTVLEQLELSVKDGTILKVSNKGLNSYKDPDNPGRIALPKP
`CTCTATCC` gave an E-score of 0.0066.
`CTTGATAC` gave an E-score of -0.214.
The E-score of `ATTTCGTA` is reported as -0.155.
With `ACTTTTGA` the E-score was -0.0131.
`AATAAGTG` has an E-score of -0.21.

Set 2
Target: RNA binding protein fox-1 homolog 2, RRM domain, GST-SBP tag (RBFOX2, Homo sapiens, UniProt O43251-10, residues 100-194)
Technique: RNA Bind-n-Seq
Form: RNA
Matrix: in vitro
Tested at: 365 nM
Setting: natural RNA segment, single round, ends assumed
Reference: no-protein control
Reading: higher = stronger binding
Shared flanks, not repeated: GGGAGUUCUACAGUCCGACGAUC … UGGAAUUCUCGGGUGCCAA
Residues (chain): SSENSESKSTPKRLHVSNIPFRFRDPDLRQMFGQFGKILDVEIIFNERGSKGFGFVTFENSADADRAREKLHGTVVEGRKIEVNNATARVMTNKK
`AGAGCGAGAACCAUUUUGGAAACUGUAAUGUAACUUAUUUUUUCCUUUAACCUCGUCAUCAUUUUCUGUAGGGAAAAAAAAAAGAAAAAGAAAAAAUGAGAUUUUACAAG` — result for “RBNS enrichment (R)”: 0.878.
Under “RBNS enrichment (R)”, `AGACAGAAGGUCAAUGUUGUCCCCAUCCAUAGGGGUUGAAUUACCUUGCUGUUAAGUGGUCUUCCCCCAUUGGGAUCCUACAGUCCCACAGAUGAAAGCACAGUAGUAGC` is recorded as 0.271.
For `ACAUGAGCACAGGUGCUUCAUGACAAACAUUACUAGCAUGUUCAACUGCACCAUGUUCUGGCACUGUAUUUUGAAUGACAUUAAUUUAUUAAAUAAAUUGUAUAUAUUCA`, “RBNS enrichment (R)” read 0.709.
Under “RBNS enrichment (R)”, `CUUCUUUUCUCCUUCAGGAACUGUGAAUGGCUAGAAGAAGGAGCUCAGUAAACUAGAAGUCCAGGGUUGCUUGGUUUACUGGUUUAUAAGAAAUCUGAAAGCACCUCUGA` is recorded as 0.446.
`UUUUGAGACUGGAGCCAACCCUUUUGGAGAGAGGACCUGCCCACCUUUGAGAUCAGCAGGGGGCUCGGAUCCAGCCCUAAGAGACUUGGGUGGACCCCCAUGAGUCAAUG` — result for “RBNS enrichment (R)”: 0.49.
`GAACUCUGAUGAGGAGAUGCUGGUAAAUUAUCAUUUUUUAAAUUGCUGGUGAGUCUGACACUUGGUGAGUUUUCAGCCAGUUUGUUAAACUUUUAAUUAAGUUUUGUUUA`: “RBNS enrichment (R)” 0.811.
`CUGGCCAUUUGAAAGCCUAGUAUUUAUUUGUAUGUCAAUAUUUGCCCAGUUGAUGUCCUAUGUAGAGUUAAUUGUAAAACUUGAAGAAUUUCAGACAUAACCAACUUAUA`: “RBNS enrichment (R)” 0.45.
Under “RBNS enrichment (R)”, `UGACCAUGUAAAAGAUCUGUUACCCCUAGAGUGUUGAGCCUGCUGAUUUCAUUUAGGACAAAUGUGCAUGUUCUGAAUGAAAUGAGAGAAAUGCUGUAUUUAUUGAUAAC` is recorded as 1.09.

Set 3
Substance: PhoQ, residues 284 288 289 292 302 303 SIHLQL
Technique: Sort-seq
Measured: YFP reporter
Matrix: E. coli
Setting: PhoQ-PhoP variant library
Added: 10 µM Mg2+
Reference: high Mg2+ state
Reading: higher = stronger signaling
PhoP, residues 12 14 15 18 19 TQALL (Escherichia coli, UniProt P23836) — fold induction: 11.3.
For PhoP, residues 12 14 15 18 19 NYFRM (Escherichia coli, UniProt P23836): fold induction read 6.51.
The fold induction was 8.03 (PhoP, residues 12 14 15 18 19 QYFSL (Escherichia coli, UniProt P23836)).

Set 4
Target: Prothrombin, mature alpha-thrombin (F2, Homo sapiens, UniProt P00734)
Technique: aptamer microarray, sandwich
Form: DNA with 2'F-ANA
Matrix: in vitro
Tested at: 200 nM
Setting: whole 15-mer aptamer, many near background
Added: Cy3 exosite-II aptamer, 400 nM
Reading: higher = stronger binding
Oligonucleotide: GGTTGGTGTGGTTGG
For `2'F-ANA at 1 4 5 6 7 8 9 10 11 13 15`, “mean fluorescence intensity” read 79.5 a.u.
`2'F-ANA at 1 2 5 6 7 15` — result for “mean fluorescence intensity”: 58.2 a.u.
For `2'F-ANA at 7 11 12 13 15`, “mean fluorescence intensity” read 647 a.u.
`2'F-ANA at 4 5 7 9 12 13 14` — result for “mean fluorescence intensity”: 58 a.u.
`2'F-ANA at 1 6 8 9 11 12 15` — result for “mean fluorescence intensity”: 288 a.u.
`2'F-ANA at 4 5 7 8 9 10 11 12 13 15` — result for “mean fluorescence intensity”: 46.3 a.u.
